# Results of several laboratories.
# Compare with care: the assays were run in different laboratories.
Compound,cell line,test,setting,how to read,inhibition [%]
CC(C)C[C@H](NC(=O)[C@H](CO)NC(=O)[C@H](CCCNC(=N)N)NC(=O)[C@H](CCCCN)NC(=O)[C@@H](NC(=O)[C@@H](NC(=O)CNC(=O)[C@H](CCCNC(=N)N)NC(=O)[C@H](Cc1c[nH]cn1)NC(=O)[C@H](Cc1c[nH]c2ccccc12)NC(=O)[C@H](Cc1ccccc1)NC(=O)[C@H](Cc1c[nH]cn1)NC(=O)[C@H](Cc1ccc(O)cc1)NC(=O)[C@@H](N)Cc1ccc(O)cc1)C(C)C)[C@@H](C)O)C(=O)N[C@@H](CO)C(=O)N1CCC[C@H]1C(=O)N[C@@H](Cc1c[nH]cn1)C(=O)N[C@@H](CCCNC(=N)N)C(=O)N1CCC[C@H]1C(=O)N[C@@H](CCCNC(=N)N)C(=O)N[C@@H](Cc1c[nH]cn1)C(=O)N[C@@H](CO)C(=O)N[C@@H](CCCNC(=N)N)C(=O)O,THP-1,"IL-1β secretion, ELISA","5 µM, 4 to 12 h, added: LPS",,15
O=C(COc1ccccc1/C=N/Nc1nc(-c2ccc(Br)cc2)cs1)N1CCN(C(=O)COc2ccccc2/C=N/Nc2nc(-c3ccc(Br)cc3)cs2)CC1,HDF,"cell growth or viability, SRB","100 µM, 48 h",,54.8
COc1ccc(C2=Nn3c(NN=C4C(=O)N(C)c5ccc(Br)cc54)nnc3SC2)cc1,M14,"cell growth or viability, SRB",10 µM,,33
CCCN(c1ccc(C(=O)NCCC(=O)O)cc1)S(=O)(=O)c1cc(C)c(-c2ccc(C(C)(C)C)cc2)c(C)c1,mouse primary hepatocytes,glucose production,"20 µM, gluconeogenic substrates, added: glucagon 10 nM",,74
C=CC(=O)Nc1ccc(F)c(-c2ncnc3[nH]cc(C(=O)OCC)c23)c1,mouse CD4 T-cell blasts,S-phase entry,"100 nM, added 8 h after IL-2, added: IL-2",,95
O=C(COc1ccc(/C=N/Nc2nc(-c3ccc(Cl)cc3)cs2)cc1)N1CCN(C(=O)COc2ccc(/C=N/Nc3nc(-c4ccc(Cl)cc4)cs3)cc2)CC1,HDF,"cell growth or viability, SRB","100 µM, 48 h",,40.6
COc1cc(Cc2c[nH]c3ncc(C(F)(F)F)cc23)cc(OC)c1,4T1,cell migration,"10 µM, 24 h",,77.3
Cc1cc(S(=O)(=O)N(CCC(F)(F)F)c2ccc(C(=O)NCCC(=O)O)cc2)cc(C)c1-c1ccc(C(C)(C)C)cc1,mouse primary hepatocytes,glucose production,"20 µM, gluconeogenic substrates, added: glucagon 10 nM",,71
COc1cc(/C=C/C(=O)/C=C(O)/C=C/c2ccc(OCC(=O)N3CCOCCOCCOCC3)c(OC)c2)ccc1OCC(=O)N1CCOCCOCCOCC1,U-251,"cell growth or viability, SRB",5 µM,,11.7
C/C(=N\N=C1/NC(=O)CS1)c1ccccn1,HEp-2,"cell growth or viability, SRB","100 µg/mL, 48 h",,59.9
CC(C)(C)ONc1nc(Nc2ccnc(C(F)(F)F)c2)nc(-c2cccc(C(F)(F)F)n2)n1,U-87 MG IDH2 R140Q,2-HG production,"0.2 µM, 72 h",,78.2
COc1cc(OC)cc(C(O)c2c[nH]c3ncc(C(F)(F)F)cc23)c1 (stereo not shown),4T1,"cell growth or viability, MTT","10 µM, 72 h",,23
CC(=O)Nc1ccc(OC(=O)CCC(=O)[O][Pt-2]23([O]C(=O)CCC(=O)Oc4ccc(NC(C)=O)cc4)([NH2+][C@@H]4CCCC[C@H]4[NH2+]2)[O]C(=O)C(=O)[O]3)cc1,4T1,"cell migration, wound healing","2 µM, 48 h",relative to: untreated control,~20

# For quick reference, copied from above:
Compound,cell line,test,setting,how to read,inhibition [%]
CCCN(c1ccc(C(=O)NCCC(=O)O)cc1)S(=O)(=O)c1cc(C)c(-c2ccc(C(C)(C)C)cc2)c(C)c1,mouse primary hepatocytes,glucose production,"20 µM, gluconeogenic substrates, added: glucagon 10 nM",,74
C=CC(=O)Nc1ccc(F)c(-c2ncnc3[nH]cc(C(=O)OCC)c23)c1,mouse CD4 T-cell blasts,S-phase entry,"100 nM, added 8 h after IL-2, added: IL-2",,95
